Published values of several laboratories.
Numbered parts are unrelated; each lists some results of a single study. Several values in a cell are separate wells, animals, samples, runs or records.
Sequence of UniProt P00519 (whole entry, looked up): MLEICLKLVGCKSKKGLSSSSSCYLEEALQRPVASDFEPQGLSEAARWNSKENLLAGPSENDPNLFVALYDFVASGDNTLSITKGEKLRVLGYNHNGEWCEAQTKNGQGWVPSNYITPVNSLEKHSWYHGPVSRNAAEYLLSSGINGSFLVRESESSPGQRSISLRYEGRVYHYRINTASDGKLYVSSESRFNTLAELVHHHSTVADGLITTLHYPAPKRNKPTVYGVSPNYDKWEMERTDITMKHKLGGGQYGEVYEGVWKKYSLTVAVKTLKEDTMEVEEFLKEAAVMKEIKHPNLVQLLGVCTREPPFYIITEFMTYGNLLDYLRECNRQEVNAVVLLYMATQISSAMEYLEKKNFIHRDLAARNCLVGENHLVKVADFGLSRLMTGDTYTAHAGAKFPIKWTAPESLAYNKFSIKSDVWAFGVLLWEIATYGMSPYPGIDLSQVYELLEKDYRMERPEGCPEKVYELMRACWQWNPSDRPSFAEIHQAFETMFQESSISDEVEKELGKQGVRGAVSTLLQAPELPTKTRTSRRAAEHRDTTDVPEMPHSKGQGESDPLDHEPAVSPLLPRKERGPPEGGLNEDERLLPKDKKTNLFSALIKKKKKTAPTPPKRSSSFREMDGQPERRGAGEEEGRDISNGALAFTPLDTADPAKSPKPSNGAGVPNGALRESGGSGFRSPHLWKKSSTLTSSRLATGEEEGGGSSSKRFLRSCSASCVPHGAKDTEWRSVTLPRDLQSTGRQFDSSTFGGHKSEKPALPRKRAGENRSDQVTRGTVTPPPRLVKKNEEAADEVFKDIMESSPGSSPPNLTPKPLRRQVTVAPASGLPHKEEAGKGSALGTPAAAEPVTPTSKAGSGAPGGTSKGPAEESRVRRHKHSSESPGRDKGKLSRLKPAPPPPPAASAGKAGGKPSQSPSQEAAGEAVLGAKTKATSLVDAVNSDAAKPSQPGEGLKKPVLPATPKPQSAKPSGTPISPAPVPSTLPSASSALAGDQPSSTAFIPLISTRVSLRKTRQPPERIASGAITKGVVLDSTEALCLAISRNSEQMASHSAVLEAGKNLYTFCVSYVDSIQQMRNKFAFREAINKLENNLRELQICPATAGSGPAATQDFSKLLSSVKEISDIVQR
Sequence of UniProt Q9UQ88 (whole entry, looked up): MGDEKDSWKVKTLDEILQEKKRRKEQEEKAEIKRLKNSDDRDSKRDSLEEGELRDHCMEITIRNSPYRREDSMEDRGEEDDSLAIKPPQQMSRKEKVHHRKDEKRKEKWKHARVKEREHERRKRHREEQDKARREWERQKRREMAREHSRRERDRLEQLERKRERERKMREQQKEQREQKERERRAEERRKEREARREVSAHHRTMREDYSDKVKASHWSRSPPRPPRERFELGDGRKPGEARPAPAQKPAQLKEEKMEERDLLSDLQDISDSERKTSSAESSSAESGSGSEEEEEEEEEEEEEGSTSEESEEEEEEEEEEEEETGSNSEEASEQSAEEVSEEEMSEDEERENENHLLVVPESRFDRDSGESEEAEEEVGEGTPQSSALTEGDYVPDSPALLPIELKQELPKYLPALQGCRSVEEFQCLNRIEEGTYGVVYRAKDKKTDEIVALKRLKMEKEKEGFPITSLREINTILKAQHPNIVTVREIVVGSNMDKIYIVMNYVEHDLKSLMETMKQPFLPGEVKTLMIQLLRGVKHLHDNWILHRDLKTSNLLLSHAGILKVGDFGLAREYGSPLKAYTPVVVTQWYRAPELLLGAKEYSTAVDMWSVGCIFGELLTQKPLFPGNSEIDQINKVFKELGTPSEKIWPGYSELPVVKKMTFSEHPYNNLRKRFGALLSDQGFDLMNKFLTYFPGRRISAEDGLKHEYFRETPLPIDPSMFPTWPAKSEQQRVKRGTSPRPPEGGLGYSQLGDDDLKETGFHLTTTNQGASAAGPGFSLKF
Sequence of UniProt P29376 (whole entry, looked up): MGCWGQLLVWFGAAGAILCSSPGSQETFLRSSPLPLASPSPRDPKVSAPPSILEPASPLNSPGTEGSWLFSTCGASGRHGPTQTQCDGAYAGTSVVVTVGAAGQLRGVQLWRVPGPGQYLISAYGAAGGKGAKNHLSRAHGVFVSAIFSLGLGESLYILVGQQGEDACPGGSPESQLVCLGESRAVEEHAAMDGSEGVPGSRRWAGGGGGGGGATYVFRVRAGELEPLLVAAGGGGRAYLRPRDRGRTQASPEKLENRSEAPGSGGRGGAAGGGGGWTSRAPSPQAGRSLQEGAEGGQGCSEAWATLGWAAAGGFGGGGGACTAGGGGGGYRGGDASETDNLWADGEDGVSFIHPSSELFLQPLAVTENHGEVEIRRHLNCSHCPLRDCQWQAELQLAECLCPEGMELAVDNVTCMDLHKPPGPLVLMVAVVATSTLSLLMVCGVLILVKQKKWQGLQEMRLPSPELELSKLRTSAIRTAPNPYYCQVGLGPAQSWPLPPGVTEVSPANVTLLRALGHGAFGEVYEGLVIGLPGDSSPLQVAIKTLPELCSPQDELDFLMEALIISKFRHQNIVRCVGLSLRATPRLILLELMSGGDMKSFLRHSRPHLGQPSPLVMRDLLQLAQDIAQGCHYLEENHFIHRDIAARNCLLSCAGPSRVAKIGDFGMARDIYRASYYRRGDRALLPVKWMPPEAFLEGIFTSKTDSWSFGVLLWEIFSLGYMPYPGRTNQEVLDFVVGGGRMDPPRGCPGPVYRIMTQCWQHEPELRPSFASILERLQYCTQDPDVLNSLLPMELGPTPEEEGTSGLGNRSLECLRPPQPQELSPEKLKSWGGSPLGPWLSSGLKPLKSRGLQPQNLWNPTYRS
Sequence of UniProt Q6P2M8 (whole entry, looked up): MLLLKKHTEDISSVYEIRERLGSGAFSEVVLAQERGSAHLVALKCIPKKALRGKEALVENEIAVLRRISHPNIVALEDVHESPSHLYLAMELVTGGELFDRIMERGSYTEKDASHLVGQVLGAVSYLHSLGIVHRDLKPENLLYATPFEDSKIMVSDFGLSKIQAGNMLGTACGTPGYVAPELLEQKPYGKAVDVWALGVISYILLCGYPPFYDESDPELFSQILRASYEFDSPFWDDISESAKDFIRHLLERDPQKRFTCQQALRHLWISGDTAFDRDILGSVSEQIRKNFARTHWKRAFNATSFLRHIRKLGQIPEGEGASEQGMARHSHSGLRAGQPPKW
Sequence of UniProt Q2M2I8 (whole entry, looked up): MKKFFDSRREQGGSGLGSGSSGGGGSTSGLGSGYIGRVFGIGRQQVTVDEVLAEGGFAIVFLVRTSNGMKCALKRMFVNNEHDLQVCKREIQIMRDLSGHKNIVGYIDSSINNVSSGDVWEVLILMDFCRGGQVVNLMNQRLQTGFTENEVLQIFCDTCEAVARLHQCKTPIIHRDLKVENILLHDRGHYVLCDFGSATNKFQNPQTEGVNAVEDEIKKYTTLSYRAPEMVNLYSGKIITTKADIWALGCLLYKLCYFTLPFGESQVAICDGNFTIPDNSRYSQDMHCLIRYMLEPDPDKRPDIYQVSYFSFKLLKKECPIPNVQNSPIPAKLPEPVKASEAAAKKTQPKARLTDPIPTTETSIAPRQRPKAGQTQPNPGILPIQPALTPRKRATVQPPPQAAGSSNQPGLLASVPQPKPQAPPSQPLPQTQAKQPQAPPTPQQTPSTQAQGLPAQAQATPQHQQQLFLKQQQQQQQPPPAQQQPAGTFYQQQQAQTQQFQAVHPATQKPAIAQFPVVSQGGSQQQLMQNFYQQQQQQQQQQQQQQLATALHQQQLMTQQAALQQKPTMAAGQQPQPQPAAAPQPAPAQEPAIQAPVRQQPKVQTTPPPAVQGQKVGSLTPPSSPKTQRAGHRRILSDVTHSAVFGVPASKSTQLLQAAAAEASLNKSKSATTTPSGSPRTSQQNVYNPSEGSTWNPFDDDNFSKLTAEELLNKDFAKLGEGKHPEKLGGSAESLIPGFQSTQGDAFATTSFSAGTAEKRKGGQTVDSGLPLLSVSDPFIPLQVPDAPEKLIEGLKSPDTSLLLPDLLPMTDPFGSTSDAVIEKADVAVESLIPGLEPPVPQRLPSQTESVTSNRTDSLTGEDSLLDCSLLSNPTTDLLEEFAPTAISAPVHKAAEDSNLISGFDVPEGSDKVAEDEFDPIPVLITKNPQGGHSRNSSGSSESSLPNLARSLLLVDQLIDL

Sample 1
Compound: CO[C@@H](C)c1c(Nc2ccc([C@H](N(C)C(=O)C3CCS(=O)(=O)CC3)C(F)(F)F)cc2)cnc2cc(Cl)nn12
Tested at: 1 µM
Measurement: remaining binding
MAPK9 (Homo sapiens, UniProt P45984); cell-free assay, competition with immobilised ligand: 92%
LTK (Homo sapiens, UniProt P29376); cell-free assay, competition with immobilised ligand: 98%
CAMK1 (Homo sapiens, UniProt Q14012); cell-free assay, competition with immobilised ligand: 66%
PNCK (Homo sapiens, UniProt Q6P2M8); cell-free assay, competition with immobilised ligand: 100%
Tyrosine-protein kinase ABL1, phosphorylated (ABL1, Homo sapiens, UniProt P00519); cell-free assay, competition with immobilised ligand: 59%
FLT3 (Homo sapiens, UniProt P36888, F691L/ITD); cell-free assay, competition with immobilised ligand: 90%
CIT (Homo sapiens, UniProt O14578); cell-free assay, competition with immobilised ligand: 94%
EPHB4 (Homo sapiens, UniProt P54760); cell-free assay, competition with immobilised ligand: 100%
CDK11A (Homo sapiens, UniProt Q9UQ88); binding, competition with immobilised ligand: 93%
AAK1 (Homo sapiens, UniProt Q2M2I8); binding: 84%

Sample 2
Target: TAR DNA-binding protein 43, full length, His tag (TARDBP, Homo sapiens, UniProt Q13148, residues 1-414)
Technique: RNA Bind-n-Seq
Form: RNA
Sample: in vitro
Tested at: 20 nM
Notes: 6-mer, flanks averaged, single round
Added: 150 mM LiCl
Baseline: input library
Reading: higher = stronger binding
Measurement: 6-mer enrichment (R)
ACCCUC: 0.988
AGAAAG: 0.93
UAAUUU: 1.11
GAUUGA: 0.956
GAUUCG: 0.889
GUUACG: 0.991
UGGCUG: 1.12
GUAAUC: 0.861

Sample 3
Cell line: mouse MPNST tumor cells
Technique: high-content nuclear imaging
Item: cell number
Tested at: 10 µM
Time: 12 h
Notes: mean of 2 replicates
Baseline: plate mean
Reading: higher = more cells
Measurement: nuclei count
COc1ccccc1C(=O)Nc1cc2c(cc1N1CCNC[C@H]1C)n(C)c(=O)n2C: 4.11 z-score and 3.3 z-score
CCc1c(C)[nH]c2c1C(=O)C(CN1CCOCC1)CC2 (centres unmarked): 0.0903 z-score
CC(C)(C)NC(=O)CN1CCC(CNC(=O)c2cc(F)cc(Cl)c2)CC1: 0.749 z-score
CC1=C(/C=C/C(C)=C/C=C/C(C)=C/C(=O)O)C(C)(C)CCC1: -2.33 z-score

Sample 4
Structure (SMILES): CC(C)n1cnc(-c2ccc(F)cc2)c1-c1ncc(C(=O)Nc2ccc(N3CCN(C)CC3)cc2)[nH]1
Technique: phase 2a trial
Species: idiopathic pulmonary fibrosis patients
Measurement: patients with paronychia
30 mg once daily, grade 1 emergent event: 0%
30 mg once daily, grade 4 emergent event: 0%
all arms pooled, grade 3 emergent event: 0%
60 mg once daily, grade 1 emergent event: 0%
30 mg once daily, grade 2 emergent event: 0%
30 mg once daily, grade 5 emergent event: 0%

Sample 5
Target: Mitogen-activated protein kinase kinase kinase 2 (MAP3K2, Homo sapiens, UniProt Q9Y2U5)
Effect on: enzyme activity
Mode: inhibitor
Tested at: 0.5 µM
Baseline: control
Measurement: remaining activity
Target sequence (Q9Y2U5 1-619): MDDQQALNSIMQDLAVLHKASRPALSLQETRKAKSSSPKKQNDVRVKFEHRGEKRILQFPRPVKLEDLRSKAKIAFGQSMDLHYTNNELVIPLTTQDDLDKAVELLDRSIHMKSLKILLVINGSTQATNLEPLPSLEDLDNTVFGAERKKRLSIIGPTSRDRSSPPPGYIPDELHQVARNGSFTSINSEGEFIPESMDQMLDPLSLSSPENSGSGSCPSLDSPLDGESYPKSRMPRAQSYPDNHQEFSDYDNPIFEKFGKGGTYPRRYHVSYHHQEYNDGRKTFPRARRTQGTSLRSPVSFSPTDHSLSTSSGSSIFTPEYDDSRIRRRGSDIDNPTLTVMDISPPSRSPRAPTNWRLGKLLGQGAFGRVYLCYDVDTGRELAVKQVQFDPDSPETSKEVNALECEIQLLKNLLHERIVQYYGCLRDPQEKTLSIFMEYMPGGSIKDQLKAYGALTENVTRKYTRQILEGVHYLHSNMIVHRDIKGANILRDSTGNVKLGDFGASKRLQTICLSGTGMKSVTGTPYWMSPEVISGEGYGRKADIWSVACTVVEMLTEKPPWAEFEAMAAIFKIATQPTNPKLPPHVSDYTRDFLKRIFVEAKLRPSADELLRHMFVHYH
CCN(CC)CCNC(=O)c1c(C)[nH]c(/C=C2\C(=O)Nc3ccc(Cl)cc32)c1C: 20.1%
COc1cc2ncnc(Nc3cccc(Cl)c3)c2cc1OC: 98.2%
O=C(Nc1cccc(Nc2nccc(Nc3cccc(C(F)(F)F)c3)n2)c1)C1CC1: 91.6%
Cn1nc2c3c(cccc31)C(=O)c1ccccc1-2: 103%
COc1cc2ncnc(Nc3ccc(O)c(Br)c3)c2cc1OC: 92.4%
CN([C@@H](Cc1ccc(OS(=O)(=O)c2cccc3cnccc23)cc1)C(=O)N1CCN(c2ccccc2)CC1)S(=O)(=O)c1cccc2cnccc12: 98.9%
Ic1cccc(CSc2nnc(-c3ccncc3)o2)c1: 106%
Cc1nc2cc3nc(-c4cccs4)cnc3cc2n1C: 90.2%
O=C1c2ccccc2-c2n[nH]c3cccc1c23: 100%
O=C1C(Cl)=C(N2C(=O)CCC2=O)C(=O)c2ccccc21: 108%
CCN(CC)C(=O)c1ccc(Nc2nc(OCC3CCCCC3)c3[nH]cnc3n2)cc1: 25.3%
c1ccc(-c2cnc(Nc3ccc(OCCN4CCCC4)cc3)s2)cc1: 104%
CN(C)C[C@H]1CCn2c(c(C3=C(c4cn(C)c5ccccc45)C(=O)NC3=O)c3ccccc32)C1: 94.6%
Nc1cccc(-c2cc3c(Oc4cccc(O)c4)ncnc3[nH]2)c1: 86.9%
N#Cc1c(NC(=O)c2cccc3ccccc23)sc2c1CCCC2: 84%
C[C@@H]1CCN(C(=O)CC#N)C[C@@H]1N(C)c1ncnc2[nH]ccc12: 123%
O=c1cc(-c2cccc3c2Sc2ccccc2S3)oc(N2CCOCC2)c1: 92.7%
COc1cc2c(cc1OC)-c1[nH]nc(Nc3cccc(F)c3)c1C2: 84.5%
CCOc1nc(NC(=O)Cc2cc(OC)ccc2OC)cc(N)c1C#N: 92.5%
N#C/C(=C\c1ccc(O)c(O)c1)C(=O)NCc1ccccc1: 99.8%
Cc1cn(-c2cc(NC(=O)c3ccc(C)c(Nc4nccc(-c5cccnc5)n4)c3)cc(C(F)(F)F)c2)cn1: 124%
O=C(NC(NC(=S)Nc1ccc(F)c([N+](=O)[O-])c1)C(Cl)(Cl)Cl)C(c1ccccc1)c1ccccc1 (centres unmarked): 96.8%
Cc1cc2ncc(-c3ccccc3)nc2cc1C: 105%

Further values, each from its own experiment
O=C1CCC(N2Cc3cc(C4CCN(Cc5ccccc5)CC4)ccc3C2=O)C(=O)N1 (centres unmarked)  volume of distribution (Vz) (male ICR mice, plasma; intravenous, 1.0 mg/kg): 13 L/kg and 13.4 L/kg
COc1cc(C(=O)OCCCN2CCCN(CCCOC(=O)c3cc(OC)c(OC)c(OC)c3)CC2)cc(OC)c1OC  rotarod fall latency (naive mice, mixed sexes; intrathecal, 100 nmol, 60 min): 82 s and 96 s and 80 s and 77 s and 68 s and 86 s
